{"data": "Measured values pooled from the literature", "note": "A part holds a random share of what one study measured. Changes are numbered by the printed parent chain."}
{"data": "Series 1", "target": "ABI1, truncated, D143A, DHFR fusion (Arabidopsis thaliana)", "method": "DHFR PCA, deep sequencing", "sample": "yeast", "setting": "methotrexate growth selection, single substitutions", "together with": "(+)-ABA 0.032 µM", "reference": "wild-type fitted maximum", "direction": "higher = stronger binding", "parent": "PYL1, truncated, DHFR fusion (Arabidopsis thaliana); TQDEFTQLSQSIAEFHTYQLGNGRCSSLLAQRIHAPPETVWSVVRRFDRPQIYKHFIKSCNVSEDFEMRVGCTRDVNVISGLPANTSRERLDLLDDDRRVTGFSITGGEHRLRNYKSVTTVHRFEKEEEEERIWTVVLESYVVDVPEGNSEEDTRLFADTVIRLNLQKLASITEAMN; partner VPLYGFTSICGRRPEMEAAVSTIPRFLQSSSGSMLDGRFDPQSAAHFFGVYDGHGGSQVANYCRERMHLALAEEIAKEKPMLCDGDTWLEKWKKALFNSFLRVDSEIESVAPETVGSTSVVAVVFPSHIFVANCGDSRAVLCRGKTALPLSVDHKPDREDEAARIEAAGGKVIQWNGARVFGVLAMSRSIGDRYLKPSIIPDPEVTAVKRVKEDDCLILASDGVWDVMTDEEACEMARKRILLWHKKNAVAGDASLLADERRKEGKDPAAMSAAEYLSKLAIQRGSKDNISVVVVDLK"}
{"Substitution": "D97W", "relative binding score [%]": -1.86}
{"Substitution": "Q7E", "relative binding score [%]": 35.6}
{"Substitution": "L8I", "relative binding score [%]": -9.78}
{"Substitution": "G23F", "relative binding score [%]": -0.181}
{"Substitution": "E109L", "relative binding score [%]": -0.859}
{"Substitution": "S140Q", "relative binding score [%]": 7.3}
{"Substitution": "T120D", "relative binding score [%]": 5.84}
{"data": "Series 2", "target": "CCNB3, cyclin fold, Cln2 fusion (human)", "method": "yeast growth competition, sequencing", "sample": "yeast", "setting": "weak parent motif", "reference": "not given", "direction": "higher = stronger binding", "parent": "PKN2 docking peptide (human); VSAVQKLDFSDTM"}
{"Substitution": "F9W", "normalised enrichment score": -0.201}
{"Substitution": "D11N", "normalised enrichment score": 0.364}
{"Substitution": "T12A", "normalised enrichment score": 0.195}
{"Substitution": "F9D", "normalised enrichment score": 0.376}
{"Substitution": "S2V", "normalised enrichment score": 0.366}
{"Substitution": "D8C", "normalised enrichment score": 0.227}
{"Substitution": "T12Q", "normalised enrichment score": -0.0429}
{"Substitution": "V4R", "normalised enrichment score": -0.111}
{"Substitution": "S2W", "normalised enrichment score": 0.334}
{"data": "Series 3", "target": "RNA binding protein fox-1 homolog 2, RRM domain, GST-SBP tag (RBFOX2, Homo sapiens, UniProt O43251-10, residues 100-194)", "method": "RNA Bind-n-Seq", "molecule type": "RNA", "sample": "in vitro", "concentration": "365 nM", "setting": "natural RNA segment, single round, ends assumed", "reference": "no-protein control", "direction": "higher = stronger binding", "shared flanks, not repeated": "GGGAGUUCUACAGUCCGACGAUC … UGGAAUUCUCGGGUGCCAA"}
{"Sequence": "UGUCUUCAGCCCCACGUAGAUGCUGCUUAAGAUGAGCGUUUCAAUUGCAUCAUCACUGACCUGUUAGAAUUUAACCCGGAAACAUCGCAAUAGCAUUUAGGGAUGCACGC", "RBNS enrichment (R)": 1.77}
{"Sequence": "AGAUUUGCCCAUCAGGGGAAAAGAAAUGGGGUUAUAUCCAUUAGGAAAAUCCCAUUUUAUAGAUAGAGGUGCAAUCACAUAAAAAUGUGGCCAGGCAGGAUUAAAGGUAU", "RBNS enrichment (R)": 0.662}
{"Sequence": "CUCUGUUUCUGCAUGAAGCACACAUACUCUGGUGUCAACACGCUAAGUAGUUUAAAUGAGGGAAAGGAAAAUGCAGACCACAUCUUGCCUGCCUCGUAAGCGUUUCCUCC", "RBNS enrichment (R)": 3.62}
{"Sequence": "UCCACCCACACGACUGCAACAUACAGGUGCCUUGGGGAAAUGUGGAGAACAUUCAAUCUUGCCGUCACUAUUCAUCAAUGAAGAUUAACACUGAGAUCCAGAGAGGCUGG", "RBNS enrichment (R)": 0.428}
{"Sequence": "UGUUAAACUGGUCUUUGAGAAAAGAAUAGUGCAGAUAAGAGCAGCCAAGGACUUCAAAGCUUGUUGAUCACUGCACUCUGGAUAAAACCCUUGGCUUCCUGUUCAAAUAG", "RBNS enrichment (R)": 0.692}
{"Sequence": "AACAUAGAUUAAAUUUGUUUAGCACUAAACUAUCCCUAGAGUAAAUUUUUAUGCUUGACAAGUUGUAUUUUAUAUAUUAGAAAUAAGAUGCCACACAGGGCAAUCCAGAU", "RBNS enrichment (R)": 0.699}
{"Sequence": "ACUCCUUUGACAGGCGACAAACUACUGUGGUGAGCAGAAUGAUUUCCUUUUUCAAGACAACACCUGCCUGGCUUCUAUUAAUGUGUGCUGGCCAUGAUAUUGCCCCAAAU", "RBNS enrichment (R)": 0.376}
{"Sequence": "GCUACCAUUCCCAAUGGGGCAGUCAACUCUGAGAAUAUUACAAGCCAUCUUUAUUGCCAAAACCAGCAAGUACACAGAGUCCUGAAACAAGGCAGGACUUUGGCAAUGCC", "RBNS enrichment (R)": 0.471}
{"Sequence": "GUAAUCAACAGCUUUCACUUUAGAUUCAAUGUGAACCGCAGAGUUACUCAUGACCAAGAGUCUGGCAAACUCAUUAAUGCUGUUUAAUACUUGUUUGAUAUUUUUUCACC", "RBNS enrichment (R)": 0.547}
{"data": "Single results of other studies"}
{"Molecule": "PhoQ, residues 284 288 289 292 302 303 SIHMAM", "target": "PhoP, residues 12 14 15 18 19 DLLYY (Escherichia coli, UniProt P23836)", "test": "Sort-seq, item: YFP reporter", "test system": "E. coli", "conditions": "PhoQ-PhoP variant library, together with: 10 µM Mg2+", "scale": "reference: high Mg2+ state, higher = stronger signaling", "endpoint": "fold induction", "value": 1.45}
{"note": "A few entries again (series 1):"}
{"Substitution": "G23F", "relative binding score [%]": -0.181}
{"Substitution": "T120D", "relative binding score [%]": 5.84}
{"Substitution": "E109L", "relative binding score [%]": -0.859}
{"Substitution": "L8I", "relative binding score [%]": -9.78}
